Experimental data collected from several papers.
Compare with care: the assays were run in different laboratories. Numbers after ± are the reported error.

O=C(COc1ccc(Cl)cc1)NC12CC(c3nnc([C@H]4C[C@@H](OC(F)(F)F)C4)o3)(C1)C2 — AUC (healthy human volunteers fasted, plasma; oral, 45 mg single dose, arithmetic mean): 30.9 µM·h
C[Si](C)(C)O[Si](C)(C)C — entropy of phase change (1-octanol/air; concentration not given): -0.034 kJ/(mol·K)
Cc1ccc([C@@H]2O[C@H](CO)[C@@H](O)[C@H](O)[C@H]2O)cc1Cc1ccc(-c2ccc(F)cc2)s1 — urinary sodium excretion change (Japanese type 2 diabetes patients; 400 mg, day 2, 24 h urine collection; relative to: baseline): -18 mEq
COc1ccc2[nH]c([S@+]([O-])Cc3ncc(C)c(OC)c3C)nc2c1 — AUC ratio (human, dried blood spots; 10 mg omeprazole, median, with: voriconazole; relative to: with voriconazole over alone): 3.8
O=C(O)C1=CO[C@@H](O[C@@H]2O[C@H](CO)[C@@H](O)[C@H](O)[C@H]2O)[C@@H]2C(CO)=CC[C@H]12 — accuracy (three freeze-thaw cycles; rat plasma; 8 ng/mL, -70 °C freeze): 108%
N[C@@H](CC(=O)N1CCn2c(nnc2C(F)(F)F)C1)Cc1cc(F)c(F)cc1F — AUC(0-2) (female human, plasma; oral, 100 mg single dose): 442 ± 122 ng·h/mL
N#Cc1ccc2c(c1)[C@H]1CCCN(C(=O)c3ccc4[nH]cnc4c3)[C@H]1C2 — total testosterone level (human males; 240 mg, day 15): 14.4 nmol/L
CN(C(=O)n1cnc(-c2cccnc2)c1)[C@H]1CC[C@H](O)CC1 — concentration (Wistar rat, medulla oblongata; oral, 10 mg/kg/day of BIA 10-2474, 24 h, repeated 5 days): 16.1 ± 1.1 ng/g
Cc1cc(-c2nccc3c2ccn3CC(=O)Nc2ccc(-c3cnccn3)cn2)ccn1 — subjects with serious TEAE (human; 15 mg once daily, multiple ascending dose): 0%
CNC(=O)c1cc(Oc2ccc(NC(=O)Nc3ccc(Cl)c(C(F)(F)F)c3)c(F)c2)cc[n+]1[O-] — autosampler stability (reconstituted solution; up to 24 h, 4 °C; relative to: initial concentration): < 15%
Cc1nc2cccc(OCC(C)(C)C(=O)NC(C)C)c2c(N)c1C(=O)O — Cmax ratio female over male (Sprague-Dawley rat, plasma; oral, 100 mg/kg, day 1; relative to: female over male): 1.82 ± 1.23
CNCCOC12CC3(C)CC(C)(CC(Cn4ncc(-c5ccc(N6CCc7cccc(C(=O)Nc8nc9ccccc9s8)c7C6)nc5C(=O)O)c4C)(C3)C1)C2 — cardiac output change (anaesthetised male beagle dogs; intravenous bolus, 0.03 mg/kg, 120 min; relative to: baseline): -47%
C=C[C@@](C)(/C=C/c1ccc(O)cc1)CCC=C(C)C — accuracy (post-procedure stability; rat plasma; 1000 ng/mL, 3 h, room temperature): 108%
CNc1ccc(-c2nc3ccc(O)cc3s2)cc1 [carbon-11 labelled] — SUV (ex vivo biodistribution; B6SJL mouse, normal, muscle; intravenous, 30 min): 0.232 ± 0.028
CCN1/C(=C/C(C)=O)Sc2ccc(F)cc21 — QTc interval (Bazett) (cynomolgus monkey; oral, 30 mg/kg, 24 h post-dose): 328 ± 17 ms
Oc1ccc([C@@H](O)c2cc(-c3ncnc4cc(N5CCOCC5)ccc34)c(F)cc2Cl)nn1 — amount excreted in urine (healthy human volunteers, urine; 0-24 h, high-fat fed tablet, geometric mean; relative to: dose): 5.2%
COc1cc2c3c(n(CCCN4CCOCC4)c(=O)c2cc1OC)-c1cc2c(cc1C3=O)OCO2 — t1/2 (beagle dog, male, plasma; intravenous infusion, 50 mg/m^2, 1 h infusion, vehicle 2): 7.8 ± 3.6 h
CNC(=O)c1ccc(-c2cnc3ncc(Cc4ccc5ncccc5c4)n3n2)cc1F — Pneumonitis treatment discontinuation (Japanese patients; oral, 400 mg, grade 3/4): 0%
C=CC(=O)NC1CCN(c2ncc3ncnc(Nc4ccc(Oc5ccc6c(c5)ncn6C)c(C)c4)c3n2)CC1 — adverse events incidence (refers to: back pain; human male; oral, dose not given, CTCAE on-treatment AEs): 0%
Cc1cc(NC2CCN(C(=O)OC3CCN(C(=O)/C=C/CN(C)C)C3)CC2)n2ncc(C(C)C)c2n1 (stereo not drawn) — patients with adverse event (Phase I dose escalation CTCAE v4.0, refers to: abdominal distension; patients with advanced solid tumours; dose not given, QD dosing grade 3 or higher): 0%
CC(C)(C(=O)N1CCOc2c(C#N)cncc2C1)C(F)F — subjects with adverse event (refers to: abdominal discomfort; human; oral, 15 mg twice daily, 14 days, multiple ascending dose): 12.5%
COc1ncc(-c2nc3c(n2C(C)C)[C@H](c2ccc(Cl)cc2)N(c2cc(Cl)cn(C)c2=O)C3=O)c(OC)n1 — AUC(0-last) (LC-MS/MS, noncompartmental; human, plasma; oral, 120 mg, cycle 1 day 1, high-dose, geometric mean): 18500 ng·h/mL
CC(C)[C@H](C(=O)Nc1ccc(C(=O)NO)cc1)c1ccccc1 — accuracy (whole blood; 1000 ng/mL, 5 h, 4 °C, stability on ice): 105%
C[C@H](N[C@@H](CCc1ccccc1)C(=O)O)C(=O)N1[C@H](C(=O)O)C[C@H]2CCCC[C@@H]21 — autosampler stability (processed human plasma; 300 pg/mL, 48 h, 4 °C; relative to: nominal): 99 ± 9.1%
CC[C@H](C)[C@H](NC(=O)CN)C(=O)N[C@@H](C)C(=O)N[C@@H](CCCCN)C(=O)N[C@@H](Cc1ccccc1)C(=O)N[C@H](C(=O)N[C@@H](CCCCN)C(=O)N[C@@H](CCCCN)C(=O)N[C@H](C(=O)N[C@@H](C)C(=O)N[C@@H](CCCCN)C(=O)N[C@@H](C)C(=O)N[C@@H](CC(C)C)C(=O)N[C@@H](CCCNC(=N)N)C(N)=O)[C@@H](C)CC)[C@@H](C)CC — helix content (circular dichroism; 10 mM SDS; 100 µM): 29%
Cc1c(-c2ccc(N3CCc4cccc(C(=O)Nc5nc6ccccc6s5)c4C3)nc2C(=O)O)cnn1CC12CC3(C)CC(C)(C1)CC(OCCNCC[C@H](O)CO)(C3)C2 — heart rate change (beagle dog, male, anaesthetised; intravenous infusion, 0.3 mg/kg/min, 120 (unit not given); relative to: vehicle): -16%
CCc1cc(C(=O)NC)c2nccc(N3CCc4c(cc(Cn5ccnc5)cc4-c4cn(C)nc4C(F)(F)F)C3=O)c2c1 — gastrocnemius weight (Sprague Dawley rats; oral, 100 mg/kg twice daily, 7 days): 2.77 ± 0.154 g
O=C(/C=C/CCc1ccc(O)cc1)/C=C/c1ccc(O)cc1 — body weight (nude mouse MCF7 xenograft; 10 mg/kg, day 2): 19.4 ± 1.46 g
C=CC(=O)Nc1cc(Nc2nccc(-c3cn(C4CC4)c4ccccc34)n2)c(OC)cc1N(C)CCN(C)C — BASO percentage (BALB/c nude mouse, LU0387 xenograft, blood; oral, 40 mg/kg): 0.06 ± 0.0245%
CC(C)C[C@H](N)C(=O)N[C@@H](Cc1c[nH]c2ccccc12)C(=O)N[C@@H](Cc1c[nH]c2ccccc12)C(=O)N[C@@H](CCCNC(=N)N)C(=O)N[C@@H](Cc1c[nH]c2ccccc12)C(=O)N[C@@H](Cc1c[nH]c2ccccc12)C(=O)N[C@@H](CCCNC(=N)N)C(=O)N[C@@H](Cc1c[nH]c2ccccc12)C(=O)N[C@@H](CCCNC(=N)N)C(=O)O — helix content (circular dichroism; 10 mM PBS; with: peptide 150 µM): 1.94%
c1ccc2c(c1)ccc1c3ccccc3ccc21 — literature range of log K (PDMS-water partitioning; PAH compilation): 4.68 to 5.63 log units
C[C@H]1Oc2cc(cnc2N)-c2c(nn(C)c2C#N)CN(C)C(=O)c2ccc(F)cc21 — free plasma concentration (mouse BALB/c nude female; 5 mg/kg twice daily for 5 days, 12 h): 134 nM
CC(C)CC(=O)NCC(=O)O — log2 fold change (binding, MIDAS equilibrium dialysis LC-MS; A2AR-BRIL thermostabilized; concentration not given; relative to: no-protein control): -0.79
O=c1c(O)c(-c2ccccc2)oc2cc3ccccc3cc12 — CO release quantum yield (DMSO): ~0.6%
COc1cccc(OC)c1-c1cc(C(=O)NC2(C(=O)O)C3CC4CC(C3)CC2C4)nn1-c1ccc(C(=O)N(C)CCCN(C)CCCN(C)C(=O)CN2CCN(CC(=O)[O-])CCN(CC(=O)[O-])CCN(CC(=O)[O-])CC2)cc1C(C)C.[177Lu+3] (stereo not drawn) — tissue uptake (mouse, HT-29 xenograft, brain; 4 h post injection): 0.34 %ID/g
CN1CC(=O)N2[C@H](c3ccc4c(c3)OCO4)c3[nH]c4ccccc4c3C[C@@H]2C1=O — accuracy (human plasma; 1.50 ng/mL, 74 days, long-term storage -20 °C): 97.7%
Cc1ccc(Sc2ccccc2N2CCNCC2)c(C)c1 — participants with TEAE (refers to: blood uric acid increased; healthy adult men; oral, 20 mg daily, 12 days): 0%
CCC(=O)N(CCC(c1ccc2c(c1)OCO2)c1ccccc1OC)Cc1ccccc1 (stereo not drawn) — DBIL (female athymic nude mouse, blood; i.p., 60 mg/kg twice daily, 14 days, group mean): 0 mg/dL
CCN(CC)CCOC(=O)c1ccc(N)cc1 — remaining compound (LC-MS; BALB/c nude mouse, plasma; 0 min): 100%
O=C1c2ccncc2C(=O)c2c1[nH]c1ccccc21 — volume of distribution (Sprague-Dawley rat female, plasma; intravenous, 1 mg/kg): 1.9 ± 1.2 L
C=CC(=O)Nc1cc(Nc2nccc(-c3cn(C)c4ccccc34)n2)c(OC)cc1N(C)CCN(C)C — AUC at steady state (human patients, plasma; dose not given, Q1 exposure quartile, with chemotherapy): 2.35 to 8.87 µM·h
COc1ccc2c(=O)n(C)c(-c3ccccc3)nc2c1 — tissue/plasma ratio (Sprague-Dawley rat, male, heart/plasma; oral, 30 mg/kg, 2 h; relative to: heart over plasma): 0.76
Cl.[2H]C([2H])([2H])CC(=O)c1cnc(NC(=O)C2CC2)cc1Nc1cccc(-c2ncn(C([2H])([2H])[2H])n2)c1OC — AUC(0-inf) (geometric mean; human; oral, 20 mg twice daily, day 1, fed, liquid, multiple dose): 1040 ng·h/mL
CNC(=O)c1ccc(-c2cnc3ncc(Cc4ccc5ncccc5c4)n3n2)cc1F — patients with adverse event (refers to: Anemia, all grades; cancer patients; oral, 600 mg twice daily, expansion cohort, any causality): 8%
O=C(Cc1ccc2ccccc2c1)Nc1cc(C2CCC2)[nH]n1 — accuracy (extracted mouse plasma; 0.5 ng/mL, 24 h, 4 °C, autosampler stability): 98.7%
C[C@@H](N)C1CCN(S(=O)(=O)c2cccc3cnccc23)CC1 — participants with TEAEs (healthy volunteers; 250 mg, fasted): 66.7%
CCCCCC(=O)NCC(=O)O — log2 fold change (binding, MIDAS equilibrium dialysis LC-MS; A2AR-BRIL thermostabilized; concentration not given; relative to: no-protein control): -0.966
C[C@@H]1CCO[C@H]2Cn3cc(C(=O)NCc4ccc(F)cc4F)c(=O)c(O)c3C(=O)N12 — AUC(0-24) (population PK, post-hoc; infants aged ≥1 months, 3 to <6 kg, plasma; oral, 5 mg dispersible tablet, steady state, geometric mean): 45900 ng·h/mL
COc1ccc2[nH]c([S+]([O-])Cc3ncc(C)c(OC)c3C)nc2c1 (stereo not drawn) — AUC(0-inf) (healthy Chinese volunteers, plasma; oral, 20 mg, fed, CYP2C19 poor metabolizers): 3630 ± 1200 ng·h/mL
NC1(C(=O)N[C@@H](CCO)c2ccc(Cl)cc2)CCN(c2nc[nH]c3nccc2-3)CC1 — incidence of Blindness (metastatic CRPC patients; 480 mg b.i.d., grade 3 to 4, treatment-related, with: enzalutamide 160 mg daily): 0%
CN(C)C(=O)c1cc2cnc(Nc3ccc(N4CCNCC4)cn3)nc2n1C1CCCC1 — renal clearance (human, end-stage renal disease, plasma and urine; oral, 400 mg, single dose, geometric mean): 10.6 mL/min
FC(F)(F)c1ccc(CNc2ccc(Cc3c[nH]c4ncc(Cl)cc34)cn2)cn1 — adverse event incidence (refers to: Vomiting; patients with advanced solid tumours; oral, dose not given, grade 1 and 2, possibly related to drug): 22%
O=C(N[C@H](Cc1c[nH]c2ccccc12)C(=O)Nc1ccncc1)c1ccc(-c2ccc(F)c(C(F)(F)F)c2)cc1F — concentration (Swiss Webster mouse, female, muscle; oral, 50 mg/kg, 2 h, 20% HPβCD vehicle): 630 nM
O=C(Nc1nc2cccc(-c3ccc(CN4CCS(=O)(=O)CC4)cc3)n2n1)C1CC1 — treatment-emergent adverse events (refers to: joint swelling; human rheumatoid arthritis patients; oral, 75 mg once daily, 4 weeks, regardless of relatedness): 0%
C[C@@H](Oc1ccc(S(C)(=O)=O)cc1C(=O)N1C[C@@H]2C[C@]2(c2cc(C(F)(F)F)on2)C1)C(F)(F)F — renal clearance at steady state (young healthy humans, plasma and urine; oral, 75 mg, 0 to 24 h, multiple dosing once daily): 5.75 mL/min
CCn1cc(C(=O)N2CCOCC2)c(=O)c2cc(NC3Cc4ccccc4C3)cnc21 — AUC(0-last) (human, fasted; oral suspension, 1200 mg single dose, arithmetic mean): 6130 ng·h/mL
CC(C)[C@@H](CS(=O)(=O)C(C)C)N1C(=O)[C@@](C)(CC(=O)O)C[C@H](c2cccc(Cl)c2)[C@H]1c1ccc(Cl)cc1 — spinal cord distribution advantage (FVB mouse, Abcb1a/b and Abcg2 knockout, spinal cord, plasma; oral, 20 mg/kg, unit not given; relative to: knockout Kp over wild-type Kp): 17.3

For quick reference, copied from above:
N[C@@H](CC(=O)N1CCn2c(nnc2C(F)(F)F)C1)Cc1cc(F)c(F)cc1F — AUC(0-2) (female human, plasma; oral, 100 mg single dose): 442 ± 122 ng·h/mL
N#Cc1ccc2c(c1)[C@H]1CCCN(C(=O)c3ccc4[nH]cnc4c3)[C@H]1C2 — total testosterone level (human males; 240 mg, day 15): 14.4 nmol/L
CN(C(=O)n1cnc(-c2cccnc2)c1)[C@H]1CC[C@H](O)CC1 — concentration (Wistar rat, medulla oblongata; oral, 10 mg/kg/day of BIA 10-2474, 24 h, repeated 5 days): 16.1 ± 1.1 ng/g
Cc1cc(-c2nccc3c2ccn3CC(=O)Nc2ccc(-c3cnccn3)cn2)ccn1 — subjects with serious TEAE (human; 15 mg once daily, multiple ascending dose): 0%
